Assay results from different studies.
Every numbered part comes from another study and shows a few of its results, in no order.

Series 1
Target: PABPC1L2, full length, GST fusion (mouse, UniProt A0ABA7IW68)
Method: RNAcompete
Molecule type: RNA
Sample: in vitro
Tested at: 20 nM
Setting: 7-mer, probes averaged, single round
Reference: mean of 7-mers
Direction: higher = stronger binding
Measurement: 7-mer Z-score
Target sequence (chain): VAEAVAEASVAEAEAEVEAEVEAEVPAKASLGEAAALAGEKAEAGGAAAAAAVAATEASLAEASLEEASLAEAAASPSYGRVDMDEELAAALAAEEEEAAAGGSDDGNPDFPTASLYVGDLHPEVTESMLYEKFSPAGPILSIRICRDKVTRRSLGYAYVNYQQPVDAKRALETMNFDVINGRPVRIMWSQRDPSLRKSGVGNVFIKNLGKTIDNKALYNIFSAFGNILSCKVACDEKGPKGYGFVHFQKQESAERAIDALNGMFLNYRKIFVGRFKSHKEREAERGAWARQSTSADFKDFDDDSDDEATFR
AGUGUCG: -0.00289
ACUUACC: -0.26
AGUGGCA: 0.167
GCUUCGU: -0.411
UCUCUGA: -0.151

Series 2
Target: TAR DNA-binding protein 43, full length, His tag (TARDBP, Homo sapiens, UniProt Q13148, residues 1-414)
Method: RNA Bind-n-Seq
Molecule type: RNA
Sample: in vitro
Tested at: 20 nM
Setting: 6-mer, flanks averaged, single round
With: 150 mM LiCl
Reference: input library
Direction: higher = stronger binding
Measurement: 6-mer enrichment (R)
UUGACG: 0.947
ACCGGG: 0.946
GGAAUG: 1.14
UAACUU: 0.912

Series 3
Target: Histone acetyltransferase KAT6A, winged helix 2, GST fusion (KAT6A, Homo sapiens, UniProt Q92794, residues 85-181)
Method: protein binding microarray
Molecule type: double-stranded DNA, one strand shown
Sample: in vitro
Tested at: not given
Setting: 8-mer, flanks averaged, mean of 2 arrays, mostly near background
Reference: not given
Direction: higher = stronger binding
Measurement: E-score
Construct (chain): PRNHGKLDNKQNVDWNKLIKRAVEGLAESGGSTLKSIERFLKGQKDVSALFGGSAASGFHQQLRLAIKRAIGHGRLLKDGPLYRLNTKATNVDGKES
TACGCGGA: 0.157
CACTCTTC: -0.119
TAGGTTCA: 0.0963
CCCGCTTA: 0.087
GTGAAAGA: 0.0122
GTGAAAAC: 0.176

Single results of other studies
PhoQ, residues 284 288 289 292 302 303 AMDMFI
fold induction (PhoP, residues 12 14 15 18 19 TQAIL (Escherichia coli, UniProt P23836); Sort-seq, refers to: YFP reporter; E. coli; PhoQ-PhoP variant library, with: 10 µM Mg2+; reference: high Mg2+ state, higher = stronger signaling): 0.786

Repeated from above (series 3):
CCCGCTTA: 0.087
